Published values pooled from the literature.
A part holds a random share of what one study measured. Substitutions count along the parent as printed.

Block 1 — technique: RNAcompete; molecule type: RNA; sample: in vitro; tested at: 20 nM; setting: 7-mer, probes averaged, single round; baseline: mean of 7-mers; reading: higher = stronger binding; quantity: 7-mer Z-score
Target: PABPC1L2, full length, GST fusion (mouse, UniProt A0ABA7IW68)
Target sequence (chain): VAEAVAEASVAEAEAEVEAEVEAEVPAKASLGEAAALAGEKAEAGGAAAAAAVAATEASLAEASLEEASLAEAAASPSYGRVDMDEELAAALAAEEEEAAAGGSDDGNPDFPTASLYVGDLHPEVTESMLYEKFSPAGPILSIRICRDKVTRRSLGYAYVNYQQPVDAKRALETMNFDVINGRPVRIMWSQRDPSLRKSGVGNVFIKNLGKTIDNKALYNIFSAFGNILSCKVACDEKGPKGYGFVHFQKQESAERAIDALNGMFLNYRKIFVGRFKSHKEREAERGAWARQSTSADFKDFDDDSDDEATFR
Oligonucleotide = GAUGCCG; value = -0.222
Oligonucleotide = ACUAGUA; value = -0.0989
Oligonucleotide = CGGUUCU; value = -0.244
Oligonucleotide = AAAUCGC; value = 0.898
Oligonucleotide = CAUGUGC; value = -0.132
Oligonucleotide = UGUCGUC; value = -0.518
Oligonucleotide = GAAUCGG; value = -0.0699
Oligonucleotide = AAUUCAU; value = -0.0627

Block 2 — target: CCND3, cyclin fold, Cln2 fusion (human); technique: yeast growth competition, sequencing; sample: yeast; setting: weak parent motif; baseline: not given; reading: higher = stronger binding; quantity: normalised enrichment score
Starting sequence: viral docking peptide; TSVRRALFTGGSD; partner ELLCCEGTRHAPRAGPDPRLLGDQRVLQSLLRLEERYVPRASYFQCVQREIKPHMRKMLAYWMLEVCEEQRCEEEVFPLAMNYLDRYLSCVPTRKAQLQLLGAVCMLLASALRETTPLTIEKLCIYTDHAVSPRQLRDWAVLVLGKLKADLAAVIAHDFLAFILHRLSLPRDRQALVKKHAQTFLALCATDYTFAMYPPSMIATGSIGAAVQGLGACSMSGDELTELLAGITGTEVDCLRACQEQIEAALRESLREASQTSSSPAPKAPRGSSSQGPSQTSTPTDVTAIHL
Variant = TSVRRALFFGGSD [T9F]; value = 0.625
Variant = TSVRRALFTCGSD [G10C]; value = -0.111
Variant = TSVRRALFTGNSD [G11N]; value = -0.331
Variant = TSVRRALFTQGSD [G10Q]; value = 0.279
Variant = TSVRRALFTGDSD [G11D]; value = -0.0338
Variant = TDVRRALFTGGSD [S2D]; value = -0.193
Variant = TSVRRALFGGGSD [T9G]; value = 0.488
Variant = TSVRRAVFTGGSD [L7V]; value = 0.326
Variant = TSVRRALFTGSSD [G11S]; value = 0.0755
Variant = TSVRRAGFTGGSD [L7G]; value = 0.252
Variant = TSVRRALFTGGLD [S12L]; value = 0.0351
Variant = TSWRRALFTGGSD [V3W]; value = 0.922
Variant = TSVRRALFTGFSD [G11F]; value = 0.312
Variant = TSVNRALFTGGSD [R4N]; value = 0.0323
Variant = TSVRRALFTGGGD [S12G]; value = -0.16
Variant = TSVRRELFTGGSD [A6E]; value = 0.0584
Variant = TSVRRALFTMGSD [G10M]; value = -0.123
Variant = TSVRRALFRGGSD [T9R]; value = 0.269
Variant = TSVRRALFTPGSD [G10P]; value = -0.128
Variant = TSVRQALFTGGSD [R5Q]; value = 0.037
Variant = TSKRRALFTGGSD [V3K]; value = 0.37
Variant = TSVRRKLFTGGSD [A6K]; value = 0.116
Variant = TSVRRSLFTGGSD [A6S]; value = 0.31
Variant = TSNRRALFTGGSD [V3N]; value = -0.147
Variant = TSVRRALFTTGSD [G10T]; value = -0.23

Block 3 — target: CRIPT, C-terminal peptide; technique: DHFR complementation, deep sequencing; sample: yeast; baseline: wild type; reading: higher = weaker binding; quantity: binding free energy change
Setting: single substitutions, model-inferred values
Starting sequence: ERBIN, PDZ domain 1 (human); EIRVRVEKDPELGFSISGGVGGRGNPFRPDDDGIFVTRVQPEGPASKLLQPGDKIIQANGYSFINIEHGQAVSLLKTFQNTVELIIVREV; partner TKNYKQTSV
Variant = F35Q; value = 0.942 kcal/mol
Variant = I34C; value = 0.789 kcal/mol
Variant = I2G; value = 0.519 kcal/mol
Variant = A58S; value = 0.152 kcal/mol
Variant = Y61S; value = 0.0142 kcal/mol
Variant = V39S; value = 0.603 kcal/mol
Variant = R5I; value = 0.145 kcal/mol
Variant = Q70N; value = 0.04 kcal/mol

Block 4 — technique: RNA Bind-n-Seq; molecule type: RNA; sample: in vitro; tested at: 200 nM; setting: whole 134-nt RNA, ends assumed; added: 150 mM KCl; baseline: input library; reading: higher = stronger binding; quantity: log2 enrichment
Target: Ras GTPase-activating protein-binding protein 1, full length (G3BP1, Homo sapiens, UniProt Q13283)
UniProt Q13283, sequence (whole entry, looked up): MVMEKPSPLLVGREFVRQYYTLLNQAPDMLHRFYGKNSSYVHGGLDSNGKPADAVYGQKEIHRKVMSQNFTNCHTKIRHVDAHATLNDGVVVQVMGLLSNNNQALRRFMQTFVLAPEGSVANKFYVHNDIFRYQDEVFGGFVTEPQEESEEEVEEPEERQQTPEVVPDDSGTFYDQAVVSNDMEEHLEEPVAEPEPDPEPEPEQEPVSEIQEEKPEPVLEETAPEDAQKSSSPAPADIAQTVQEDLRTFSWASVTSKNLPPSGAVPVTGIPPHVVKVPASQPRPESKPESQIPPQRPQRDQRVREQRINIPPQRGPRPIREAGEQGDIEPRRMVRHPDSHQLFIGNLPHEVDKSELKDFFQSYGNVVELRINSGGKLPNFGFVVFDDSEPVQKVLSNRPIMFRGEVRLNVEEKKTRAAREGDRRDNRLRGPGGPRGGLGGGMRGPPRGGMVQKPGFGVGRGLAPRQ
Shared flanks, not repeated: GGGAGUUCUACAGUCCGACGAUC … UGGAAUUCUCGGGUGUCAAGG
Oligonucleotide = UGGCCCUGGUGGCAUGCGGGGAGGAAGAGGUGGCCUCAUGGAUCGUGGUGGUCCCGGUGGAAUGUUCAGAGGUGGCCGUGGUGGUGACAG; value = 0.127
Oligonucleotide = UAACUUUAGAGGAGGAUCUGAUGGAUAUGGCAAUGGACGUGGAUUUGGGGAUGGCUAUAAUGGGUAUGGAGGAGGACCUGGAGGUGGCAA; value = 0.352
Oligonucleotide = UCAAGUCCUGUGCUACACAUCGUAUGUACCGAAUCGGGGUUGGGGUUGGGUUGGAAAGUAUUAUGUUACGCCGUUCGGAUCUGCACUUCC; value = 0.16
Oligonucleotide = ACCAUGCAGGUGGGCAUCUUUGGGAAGUGGGGCAUGGGGGGGAUAGGGAGGGGGGUAACACUUUGGGAACAGGUGGUCCCAGGUCGUUUC; value = 1.41
Oligonucleotide = CUGUGCUACACAUCGUAUGUACCGAAUCGGGGAAAAAGGGGAAAAAGGGGAAAAAAAGGGGAAAGUAUUAUGUUACGCCGUUCGGAUCUG; value = -0.212
Oligonucleotide = CCUGUGCUACACAUCGUAUGUACCGAAUCGGGGAAAAAAGGAAAAAAGGGGAAAAAAGGGAAAGUAUUAUGUUACGCCGUUCGGAUCUGC; value = -0.542
Oligonucleotide = CUCAAGUCCUGUGCUACACAUCGUAUGUACCGAAUCGGGUUGGUUGGGUUGGGGAAAGUAUUAUGUUACGCCGUUCGGAUCUGCACUUCC; value = 0.741
Oligonucleotide = UGGCCCUGGUGGCAUGCGGGGAGGAAGAGGUGGCCUCAUGGAUCGUGGUGGUCCCGGUGGAAUGUUCAGAGGUGGCCGUAGUGGAGACAG; value = 0.0401

Block 5 — technique: RNA Bind-n-Seq; molecule type: RNA; sample: in vitro; tested at: 20 nM; setting: 6-mer, flanks averaged, single round; added: 150 mM KCl; baseline: input library; reading: higher = stronger binding; quantity: 6-mer enrichment (R)
Target: TAR DNA-binding protein 43, full length, His tag (TARDBP, Homo sapiens, UniProt Q13148, residues 1-414)
Oligonucleotide = GAAAUU; value = 0.63
Oligonucleotide = ACAUUG; value = 0.645
Oligonucleotide = UAAUUC; value = 0.595
Oligonucleotide = CAGCUA; value = 0.642
Oligonucleotide = CAUCGA; value = 0.611
Oligonucleotide = CAGAGG; value = 1.91
Oligonucleotide = UUGGGC; value = 1.68
Oligonucleotide = AGCGAC; value = 0.808

Some of these lines once more (block 1):
Oligonucleotide = CAUGUGC; value = -0.132
Oligonucleotide = GAUGCCG; value = -0.222
Oligonucleotide = UGUCGUC; value = -0.518
Oligonucleotide = GAAUCGG; value = -0.0699
Oligonucleotide = CGGUUCU; value = -0.244
Oligonucleotide = AAAUCGC; value = 0.898
Oligonucleotide = ACUAGUA; value = -0.0989
